Experimental data of several laboratories.
Each numbered part is a random draw from the data of one study; scales do not carry over between parts.
UniProt Q14289, sequence (whole entry, looked up): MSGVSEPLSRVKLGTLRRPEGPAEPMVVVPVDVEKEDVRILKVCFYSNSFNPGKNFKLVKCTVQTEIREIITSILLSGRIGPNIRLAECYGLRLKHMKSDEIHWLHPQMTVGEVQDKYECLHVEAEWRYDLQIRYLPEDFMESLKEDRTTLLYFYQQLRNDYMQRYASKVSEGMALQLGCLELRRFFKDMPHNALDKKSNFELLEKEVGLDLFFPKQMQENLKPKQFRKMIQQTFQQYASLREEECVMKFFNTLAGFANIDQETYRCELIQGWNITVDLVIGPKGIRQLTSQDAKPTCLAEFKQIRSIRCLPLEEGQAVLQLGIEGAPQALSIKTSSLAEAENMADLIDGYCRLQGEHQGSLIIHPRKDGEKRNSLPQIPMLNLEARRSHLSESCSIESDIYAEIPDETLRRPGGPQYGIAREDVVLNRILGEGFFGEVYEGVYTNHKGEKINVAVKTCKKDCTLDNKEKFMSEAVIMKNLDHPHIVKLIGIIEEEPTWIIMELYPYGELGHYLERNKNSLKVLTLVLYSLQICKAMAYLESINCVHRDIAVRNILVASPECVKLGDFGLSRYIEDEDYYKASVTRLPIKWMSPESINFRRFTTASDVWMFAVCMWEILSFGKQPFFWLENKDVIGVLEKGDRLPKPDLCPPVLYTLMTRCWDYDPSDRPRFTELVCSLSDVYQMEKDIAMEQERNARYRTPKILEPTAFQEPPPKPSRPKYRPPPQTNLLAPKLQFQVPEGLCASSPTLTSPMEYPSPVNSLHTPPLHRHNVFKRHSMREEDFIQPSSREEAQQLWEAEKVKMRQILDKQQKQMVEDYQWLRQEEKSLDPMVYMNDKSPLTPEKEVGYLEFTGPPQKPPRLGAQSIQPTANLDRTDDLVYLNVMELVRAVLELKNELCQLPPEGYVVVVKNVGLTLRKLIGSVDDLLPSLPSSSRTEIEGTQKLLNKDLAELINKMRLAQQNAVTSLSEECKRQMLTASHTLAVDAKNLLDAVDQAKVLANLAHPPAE
UniProt P15056, sequence (whole entry, looked up): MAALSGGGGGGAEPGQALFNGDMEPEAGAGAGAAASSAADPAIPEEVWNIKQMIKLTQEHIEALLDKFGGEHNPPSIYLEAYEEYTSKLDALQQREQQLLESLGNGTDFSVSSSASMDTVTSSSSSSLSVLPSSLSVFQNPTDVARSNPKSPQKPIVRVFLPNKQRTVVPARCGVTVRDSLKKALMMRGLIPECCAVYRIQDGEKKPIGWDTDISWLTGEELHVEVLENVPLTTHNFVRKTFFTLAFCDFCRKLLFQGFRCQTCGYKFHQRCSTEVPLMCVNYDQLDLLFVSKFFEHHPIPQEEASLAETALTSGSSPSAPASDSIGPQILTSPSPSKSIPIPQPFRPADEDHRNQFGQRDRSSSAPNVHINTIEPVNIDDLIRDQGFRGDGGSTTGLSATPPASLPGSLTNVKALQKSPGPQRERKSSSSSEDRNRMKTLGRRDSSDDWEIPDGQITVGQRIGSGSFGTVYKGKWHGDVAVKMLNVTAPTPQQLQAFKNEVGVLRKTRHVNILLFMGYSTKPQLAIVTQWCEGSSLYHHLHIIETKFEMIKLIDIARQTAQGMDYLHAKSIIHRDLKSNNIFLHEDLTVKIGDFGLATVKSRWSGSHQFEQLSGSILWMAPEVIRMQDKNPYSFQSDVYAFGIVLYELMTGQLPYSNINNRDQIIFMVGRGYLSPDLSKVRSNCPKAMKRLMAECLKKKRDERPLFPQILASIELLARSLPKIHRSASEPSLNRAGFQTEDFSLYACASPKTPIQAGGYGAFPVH
UniProt Q8TF76, sequence (whole entry, looked up): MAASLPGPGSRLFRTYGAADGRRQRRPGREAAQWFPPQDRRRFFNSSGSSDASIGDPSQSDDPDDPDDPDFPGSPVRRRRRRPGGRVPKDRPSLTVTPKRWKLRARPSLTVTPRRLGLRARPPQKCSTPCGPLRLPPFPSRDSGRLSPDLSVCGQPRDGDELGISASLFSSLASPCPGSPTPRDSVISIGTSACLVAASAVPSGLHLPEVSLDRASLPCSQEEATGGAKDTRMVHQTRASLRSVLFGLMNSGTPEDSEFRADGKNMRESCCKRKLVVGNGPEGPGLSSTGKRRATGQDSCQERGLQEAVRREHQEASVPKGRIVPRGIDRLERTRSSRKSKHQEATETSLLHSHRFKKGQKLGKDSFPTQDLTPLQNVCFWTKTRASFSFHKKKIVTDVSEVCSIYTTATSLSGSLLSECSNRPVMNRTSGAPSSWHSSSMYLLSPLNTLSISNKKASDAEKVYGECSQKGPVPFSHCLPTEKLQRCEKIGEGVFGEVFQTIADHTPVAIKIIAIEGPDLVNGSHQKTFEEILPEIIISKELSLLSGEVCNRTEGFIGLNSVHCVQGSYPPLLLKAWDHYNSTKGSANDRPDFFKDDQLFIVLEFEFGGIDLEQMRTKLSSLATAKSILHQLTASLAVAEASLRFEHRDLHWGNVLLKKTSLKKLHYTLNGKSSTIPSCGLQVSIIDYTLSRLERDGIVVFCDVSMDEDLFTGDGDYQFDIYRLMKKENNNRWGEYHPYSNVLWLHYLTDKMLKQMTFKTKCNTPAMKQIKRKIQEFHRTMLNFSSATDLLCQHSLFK
UniProt Q15835, sequence (whole entry, looked up): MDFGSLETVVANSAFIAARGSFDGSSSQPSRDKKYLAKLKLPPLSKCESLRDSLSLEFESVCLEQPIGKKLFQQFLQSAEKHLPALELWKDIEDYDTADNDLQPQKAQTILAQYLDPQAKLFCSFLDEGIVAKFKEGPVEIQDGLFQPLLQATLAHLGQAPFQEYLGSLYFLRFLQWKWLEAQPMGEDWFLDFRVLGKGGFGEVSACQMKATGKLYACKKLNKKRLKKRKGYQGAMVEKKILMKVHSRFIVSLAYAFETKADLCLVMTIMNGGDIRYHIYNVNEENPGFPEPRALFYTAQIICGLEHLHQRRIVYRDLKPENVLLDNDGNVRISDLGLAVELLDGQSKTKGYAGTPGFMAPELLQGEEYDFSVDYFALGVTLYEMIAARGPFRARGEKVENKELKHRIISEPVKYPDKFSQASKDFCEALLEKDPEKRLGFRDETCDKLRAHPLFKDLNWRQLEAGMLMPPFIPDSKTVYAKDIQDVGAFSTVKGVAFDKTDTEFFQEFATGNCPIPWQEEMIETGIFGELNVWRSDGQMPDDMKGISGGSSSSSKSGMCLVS
UniProt P68400, sequence (whole entry, looked up): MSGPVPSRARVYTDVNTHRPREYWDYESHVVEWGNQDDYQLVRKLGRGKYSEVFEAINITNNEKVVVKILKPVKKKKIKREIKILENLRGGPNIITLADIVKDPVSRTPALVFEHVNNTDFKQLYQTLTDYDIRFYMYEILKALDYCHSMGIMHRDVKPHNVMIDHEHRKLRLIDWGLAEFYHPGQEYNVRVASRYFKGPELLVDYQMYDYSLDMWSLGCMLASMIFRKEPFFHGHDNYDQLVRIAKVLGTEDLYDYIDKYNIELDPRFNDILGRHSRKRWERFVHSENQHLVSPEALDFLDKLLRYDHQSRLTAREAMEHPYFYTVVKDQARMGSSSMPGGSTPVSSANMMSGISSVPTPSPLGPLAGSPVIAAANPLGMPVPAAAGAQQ
UniProt Q13043, sequence (whole entry, looked up): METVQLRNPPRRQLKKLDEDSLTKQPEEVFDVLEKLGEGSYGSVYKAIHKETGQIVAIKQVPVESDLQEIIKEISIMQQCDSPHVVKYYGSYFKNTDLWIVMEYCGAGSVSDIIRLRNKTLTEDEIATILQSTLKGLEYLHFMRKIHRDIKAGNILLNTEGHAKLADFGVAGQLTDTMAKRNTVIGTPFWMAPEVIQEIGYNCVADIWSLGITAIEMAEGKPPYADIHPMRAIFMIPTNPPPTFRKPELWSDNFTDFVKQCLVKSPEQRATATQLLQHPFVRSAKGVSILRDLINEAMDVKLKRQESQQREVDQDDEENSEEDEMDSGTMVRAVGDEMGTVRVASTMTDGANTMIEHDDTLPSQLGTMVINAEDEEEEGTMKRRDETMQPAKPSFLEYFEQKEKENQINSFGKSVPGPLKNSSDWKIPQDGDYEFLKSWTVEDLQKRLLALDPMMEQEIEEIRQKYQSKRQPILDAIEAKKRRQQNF
UniProt Q13705, sequence (whole entry, looked up): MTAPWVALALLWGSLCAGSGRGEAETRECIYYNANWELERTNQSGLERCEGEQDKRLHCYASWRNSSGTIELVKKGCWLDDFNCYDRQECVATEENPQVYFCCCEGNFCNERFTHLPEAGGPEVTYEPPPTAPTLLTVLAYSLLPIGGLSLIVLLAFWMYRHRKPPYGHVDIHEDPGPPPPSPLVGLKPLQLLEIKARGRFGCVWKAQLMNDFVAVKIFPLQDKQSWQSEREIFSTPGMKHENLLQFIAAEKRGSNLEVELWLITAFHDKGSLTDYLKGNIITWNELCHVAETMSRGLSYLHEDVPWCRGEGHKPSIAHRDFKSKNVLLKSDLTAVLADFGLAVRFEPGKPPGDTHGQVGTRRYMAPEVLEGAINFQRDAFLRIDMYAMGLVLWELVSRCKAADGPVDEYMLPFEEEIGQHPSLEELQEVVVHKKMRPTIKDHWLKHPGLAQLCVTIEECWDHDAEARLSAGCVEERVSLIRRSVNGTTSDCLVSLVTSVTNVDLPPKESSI

Block 1
SMILES: O=C(Nc1cnn(-c2csc(C(=O)NC3COC3)c2)c1)Nc1ccccc1Cl
Read-out: enzyme activity
Tested at: 5 µM
Relative to: untreated control
target	remaining activity
Death-associated protein kinase 1 (DAPK1, Homo sapiens, UniProt P53355)	98.6%
Rhodopsin kinase GRK1 (GRK1, Homo sapiens, UniProt Q15835)	91.8%
cGMP-dependent protein kinase 1, isoform beta (PRKG1, Homo sapiens, UniProt Q13976)	86.2%
Mitogen-activated protein kinase 14 (MAPK14, Homo sapiens, UniProt Q16539)	141%
RAC-alpha serine/threonine-protein kinase (AKT1, Homo sapiens, UniProt P31749)	94%
Protein-tyrosine kinase 2-beta (PTK2B, Homo sapiens, UniProt Q14289)	92.7%
Calcium/calmodulin-dependent protein kinase type II subunit alpha (CAMK2A, Homo sapiens, UniProt Q9UQM7)	99.6%
MAP kinase-interacting serine/threonine-protein kinase 1 (MKNK1, Homo sapiens, UniProt Q9BUB5)	94.2%
Maternal embryonic leucine zipper kinase (MELK, Homo sapiens, UniProt Q14680)	48.2%
Serine/threonine-protein kinase N2 (PKN2, Homo sapiens, UniProt Q16513)	109%

Block 2
Structure (SMILES): O=C1Nc2ccc(Br)cc2/C1=C/c1cc2c([nH]1)CCCC2
Read-out: enzyme activity
Mode: inhibitor
Tested at: 0.5 µM
Relative to: control
target	remaining activity [%]
Serine/threonine-protein kinase B-raf (BRAF, Homo sapiens, UniProt P15056)	92.5
Serine/threonine-protein kinase 4 (STK4, Homo sapiens, UniProt Q13043)	44.1
Protein-tyrosine kinase 6 (PTK6, Homo sapiens, UniProt Q13882)	82.3
Dual specificity protein kinase TTK (TTK, Homo sapiens, UniProt P33981)	95.1
Tyrosine-protein kinase ZAP-70 (ZAP70, Homo sapiens, UniProt P43403)	93.9
Serine/threonine-protein kinase haspin (HASPIN, Homo sapiens, UniProt Q8TF76)	88
Tyrosine-protein kinase SYK (SYK, Homo sapiens, UniProt P43405)	90.5

Block 3
SMILES: O=C(NS(=O)(=O)c1ccc(NCC2CCOCC2)c([N+](=O)[O-])c1)c1ccc(N2CCN(Cc3ccc(C(F)(F)F)cc3-c3ccc(Cl)cc3)CC2)cc1Oc1cnc2[nH]ccc2c1
Read-out: cell-free assay
Method: competition with immobilised ligand
Tested at: 1 µM
target	remaining binding
Membrane-associated tyrosine- and threonine-specific cdc2-inhibitory kinase (PKMYT1, Homo sapiens, UniProt Q99640)	90%
Tyrosine-protein kinase JAK1, JH2 (JAK1, Homo sapiens, UniProt P23458)	100%
Mitogen-activated protein kinase 3 (MAPK3, Homo sapiens, UniProt P27361)	98%
Serine/threonine-protein kinase 35 (STK35, Homo sapiens, UniProt Q8TDR2)	95%
Vascular endothelial growth factor receptor 3 (FLT4, Homo sapiens, UniProt P35916)	100%
Serine/threonine-protein kinase PAK 5 (PAK5, Homo sapiens, UniProt Q9P286)	95%
Protein-tyrosine kinase 2-beta (PTK2B, Homo sapiens, UniProt Q14289)	100%
ALK tyrosine kinase receptor (ALK, Homo sapiens, UniProt Q9UM73)	94%
Phosphatidylinositol 4,5-bisphosphate 3-kinase catalytic subunit beta isoform (PIK3CB, Homo sapiens, UniProt P42338)	100%
Cyclin-dependent kinase 11B (CDK11B, Homo sapiens, UniProt P21127)	97%
Activin receptor type-2B (ACVR2B, Homo sapiens, UniProt Q13705)	94%
Leucine-rich repeat serine/threonine-protein kinase 2 (LRRK2, Homo sapiens, UniProt Q5S007, G2019S)	88%
Phosphatidylinositol 4,5-bisphosphate 3-kinase catalytic subunit alpha isoform (PIK3CA, Homo sapiens, UniProt P42336, E545K)	100%
Serine/threonine-protein kinase B-raf (BRAF, Homo sapiens, UniProt P15056)	100%
Receptor-type tyrosine-protein kinase FLT3 (FLT3, Homo sapiens, UniProt P36888, R834Q)	80%
Casein kinase II subunit alpha (CSNK2A1, Homo sapiens, UniProt P68400)	83%

Block 4
Target: Beta-1 adrenergic receptor (ADRB1, Homo sapiens, UniProt P08588)
UniProt P08588, sequence (whole entry, looked up): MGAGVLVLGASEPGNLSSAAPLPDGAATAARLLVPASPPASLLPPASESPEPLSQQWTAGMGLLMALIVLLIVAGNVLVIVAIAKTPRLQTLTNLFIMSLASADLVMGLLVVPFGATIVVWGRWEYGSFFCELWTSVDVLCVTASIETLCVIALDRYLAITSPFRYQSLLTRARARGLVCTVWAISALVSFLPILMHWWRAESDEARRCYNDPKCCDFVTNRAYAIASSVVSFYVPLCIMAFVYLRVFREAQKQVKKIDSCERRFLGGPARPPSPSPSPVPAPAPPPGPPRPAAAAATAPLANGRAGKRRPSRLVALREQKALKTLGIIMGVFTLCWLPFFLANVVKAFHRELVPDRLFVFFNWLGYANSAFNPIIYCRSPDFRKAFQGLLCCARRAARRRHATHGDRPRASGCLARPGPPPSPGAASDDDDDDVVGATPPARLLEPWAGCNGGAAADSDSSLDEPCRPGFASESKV
Mode: agonist
SMILES	Emax [%]
COc1ccccc1N1CCN(C(=O)C(C)CN)CC1 (centres unmarked)	35.5
COc1ccccc1N1CCN([C@@H]2[C@H](O)[C@H](CO)O[C@@H]2CNC(C)C)CC1	54.3
CN(CCc1ccc(Cl)c(Cl)c1)CC(O)COc1ccc(N[S+](C)(=O)[O-])cc1 (centres unmarked)	39.5
COc1ccc(C(O)Cn2ccn3nc(-c4ccc(C(C)C)cc4)cc3c2=O)cc1 (centres unmarked)	64.3
COc1ccccc1N1CCN(C(=O)C[C@@H]2O[C@H](CNC(=O)c3ccc(N(C)C)cc3)[C@@H](O)[C@H]2O)CC1	89
CC(C)(C)NCC(O)COc1cccc2c1C[C@H](O)[C@H](O)C2 (mixture of isomers)	62.1
CC(C)NCC(O)c1ccc2ccccc2c1 (centres unmarked)	97.5
CN(Cc1ccc2nonc2c1)Cc1ccccc1OCC(O)CN1CCCCC1 (centres unmarked)	71.9

Repeated from above (block 3):
target	remaining binding
ALK tyrosine kinase receptor (ALK, Homo sapiens, UniProt Q9UM73)	94%
Phosphatidylinositol 4,5-bisphosphate 3-kinase catalytic subunit beta isoform (PIK3CB, Homo sapiens, UniProt P42338)	100%
Cyclin-dependent kinase 11B (CDK11B, Homo sapiens, UniProt P21127)	97%
Activin receptor type-2B (ACVR2B, Homo sapiens, UniProt Q13705)	94%
